Published values gathered from unrelated publications.
Protocols differ between the studies behind these lines. Converted amounts (≈) assume the structure as drawn.
Organism: Pseudomonas aeruginosa

`CN[C@H](CC(C)C)C(=O)N[C@H]1C(=O)N[C@@H](CC(N)=O)C(=O)N[C@H]2C(=O)N[C@H]3C(=O)N[C@H](C(=O)N[C@H](C(=O)NCC(N)=O)c4cc(O)cc(O)c4-c4cc3ccc4O)[C@H](O)c3ccc(c(Cl)c3)Oc3cc2cc(c3O[C@@H]2O[C@H](CO)[C@@H](O)[C@H](O)[C@H]2O[C@H]2C[C@](C)(NCc3ccc(OCc4cn(CC(=O)N[C@H](C(=O)N[C@@H](CCN)C(=O)N[C@H]5CCNC(=O)[C@H]([C@@H](C)O)NC(=O)[C@H](CCN)NC(=O)[C@H](CCN)NC(=O)[C@H](CC(C)C)NC(=O)[C@@H](CC(C)C)NC(=O)[C@H](CCN)NC5=O)[C@@H](C)O)nn4)c(OC)c3)[C@H](O)[C@H](C)O2)Oc2ccc(cc2Cl)[C@H]1O` has an MIC of 6 µM (broth microdilution; ATCC 25922, cation-adjusted Mueller-Hinton broth).
`CC(C)C[C@H](NC(=O)[C@H](CC(C)C)NC(=O)[C@H](CCCCN)NC(=O)[C@H](Cc1ccccc1)NC(=O)[C@@H](NC(=O)[C@H](CCCNC(=N)N)NC(=O)[C@@H](N)CCCCN)C(C)C)C(=O)N[C@@H](CCCCN)C(=O)N[C@@H](CCCNC(=N)N)C(=O)N[C@@H](Cc1ccc(O)cc1)C(=O)N[C@@H](Cc1c[nH]c2ccccc12)C(=O)N[C@@H](CCCNC(=N)N)C(=O)N[C@@H](CCC(N)=O)C(=O)N[C@@H](CC(C)C)C(=O)N[C@@H](CCCCN)C(=O)N[C@@H](CCCCN)C(=O)N1CCC[C@H]1C(=O)N[C@H](C(=O)N[C@@H](CCCNC(=N)N)C(=O)NCCOCCOCC(=O)O)C(C)C` — result for “time to complete killing”: no more than 60 min (RPMI-1640 10% FBS; 2× MIC, 37 °C).
`Nc1nc2ccc(Oc3ccncc3)cc2s1` gave a pyocyanin inhibition of 25.5% (absorbance; PA14-lux; 200 µM, 18 h; baseline: DMSO).
With `CC(C)[C@H]1NC(=O)[C@H](Cc2ccc(O)cc2)NC(=O)[C@@H](C(C)C)NC(=O)[C@@H](C)NC(=O)[C@H](CO)NC(=O)[C@@H](Cc2c(-c3ccc(-c4ccc5ccccc5c4)cc3)[nH]c3ccccc23)NC(=O)[C@@H](CO)NC1=O` the MIC90 was greater than 50 µM (broth dilution).
With `CCCCCCCCCC(=O)OCCSCCC(=O)N[C@H](CCN)C(=O)N[C@@H](CCN)C(=O)N[C@@H](CCN)C(=O)N[C@@H](CC(C)C)C(=O)N[C@H](Cc1ccccc1)C(=O)N[C@@H](CCN)C(=O)N[C@@H](CCN)C(=O)N[C@@H](CC(C)C)C(N)=O` the MBC was 16 µM (≈ 18.8 µg/mL) (PAO1; 24 h, 37 °C).
With `Nc1nc2ccc(Oc3ccc4nc(N)sc4c3)cc2s1` the inhibition was 12.8% (pyocyanin production; PA14-lux; 200 µM, 18 h; baseline: DMSO vehicle).
`C#CCCC1(CCC(=O)NCc2c(O)c(=O)cc(C)n2C)N=N1` has an IC50 of 4.59 µM (microbial growth; PAO1).
`CC(N)C(O)CCCCCCCCCCCCCCC(=O)CCCCCCCC(O)C(C)N` (stereo not shown) has a growth inhibition of 3% (resazurin; ATCC 27853; 50 µM).
`Nc1nc2ccc(S(=O)(=O)c3cn[nH]c3N)cc2s1` has an inhibition of 87% (swarming area, modified FAB agar; PA14-lux; 200 µM, 24 h; baseline: DMSO vehicle).
For `CN[C@H](CC(C)C)C(=O)N[C@H]1C(=O)N[C@@H](CC(N)=O)C(=O)N[C@H]2C(=O)N[C@H]3C(=O)N[C@H](C(=O)N[C@H](C(=O)O)c4cc(O)cc(O)c4-c4cc3ccc4O)[C@H](O)c3ccc(c(Cl)c3)Oc3cc2cc(c3O[C@@H]2O[C@H](CO)[C@@H](O)[C@H](O)[C@H]2O[C@H]2C[C@](C)(NCc3ccc(OCc4cn(CC(=O)N[C@H](C(=O)N[C@@H](CCN)C(=O)N[C@H]5CCNC(=O)[C@H]([C@@H](C)O)NC(=O)[C@H](CCN)NC(=O)[C@H](CCN)NC(=O)[C@H](CC(C)C)NC(=O)[C@@H](CC(C)C)NC(=O)[C@H](CCN)NC5=O)[C@@H](C)O)nn4)c(OC)c3)[C@H](O)[C@H](C)O2)Oc2ccc(cc2Cl)[C@H]1O`, the MIC was 3 µM (broth microdilution; ATCC 13883, cation-adjusted Mueller-Hinton broth).
With `CC(C)C[C@H](NC(=O)[C@H](CCN)NC(=O)[C@H](CCN)NC(=O)[C@@H](Cc1ccccc1)NC(=O)[C@H](CC(C)C)NC(=O)[C@H](CCN)NC(=O)[C@H](CCN)NC(=O)[C@@H](CCN)NC(=O)CCS)C(N)=O` the MBC was greater than 128 µM (PAO1; 24 h, 37 °C).
With `CC(C)[C@H]1NC(=O)[C@H](Cc2ccccc2)NC(=O)[C@@H](C(C)C)NC(=O)[C@@H](C)NC(=O)[C@H](C)NC(=O)[C@@H](Cc2c(-c3ccc(-c4ccc(-c5ccccc5)cc4)cc3)[nH]c3ccccc23)NC(=O)[C@@H](CO)NC1=O` the MIC90 was greater than 50 µM (broth dilution).
`CC(C)C[C@H](NC(=O)[C@H](CCN)NC(=O)[C@H](CCN)NC(=O)[C@@H](Cc1ccccc1)NC(=O)[C@H](CC(C)C)NC(=O)[C@H](CCN)NC(=O)[C@H](CCN)NC(=O)[C@@H](CCN)NC(=O)CCSCCOC(=O)c1ccccc1)C(N)=O` has an MBC of 128 µM (≈ 144 µg/mL) (PAO1; 24 h, 37 °C).
The MIC90 of `CC(C)[C@H]1NC(=O)[C@H](Cc2ccccc2)NC(=O)[C@@H](C(C)C)NC(=O)[C@@H](C)NC(=O)[C@H](CO)NC(=O)[C@@H](Cc2c(-c3ccc(-c4ccccc4)c(F)c3)[nH]c3ccccc23)NC(=O)[C@@H](CO)NC1=O` is reported as greater than 50 µM (broth dilution).
With `Cn1cc(S(=O)(=O)c2ccc3nc(N)sc3c2)cn1` the inhibition was -2.55% (swarming area, modified FAB agar; PA14-lux; 200 µM, 24 h; baseline: DMSO vehicle).
`CC(C)[C@H]1NC(=O)[C@H](Cc2ccccc2)NC(=O)[C@@H](C(C)C)NC(=O)[C@@H](C)NC(=O)[C@H](C)NC(=O)[C@@H](Cc2c(-c3ccc(-c4ccc5ccccc5c4)cc3)[nH]c3ccccc23)NC(=O)[C@@H](C)NC1=O` has an MIC90 of greater than 50 µM (broth dilution).
With `CC[C@H](C)[C@@H]1NC(=O)[C@@H]2CCCN2C(=O)[C@H](C)NC(=O)[C@H](CC(C)C)NC(=O)[C@@H]2CCCN2C(=O)[C@H](C)NC(=O)[C@@H]2CSSC[C@H](NC(=O)[C@H](C)NC(=O)[C@H](C)NC(=O)[C@H](Cc3ccc(O)cc3)NC(=O)[C@@H]3CCCN3C(=O)CNC(=O)[C@H](Cc3c[nH]c4ccccc34)NC1=O)C(=O)N[C@@H](CC(C)C)C(=O)N[C@@H](CO)C(=O)N[C@@H](C)C(=O)N[C@H]1CSSC[C@H](NC(=O)[C@H](C(C)C)NC(=O)[C@@H]3CCCN3C(=O)CNC(=O)CNC(=O)CNC(=O)[C@H](C)NC(=O)[C@H](C)NC(=O)[C@H](CC(C)C)NC1=O)C(=O)N[C@@H](CC(C)C)C(=O)N[C@@H](C)C(=O)N[C@@H](C(C)C)C(=O)N2` the MIC was greater than 128 µg/mL (ATCC 27853).
The inhibition of `Nc1nc2ccc(S(=O)(=O)c3cccnc3)cc2s1` is reported as 7.19% (pyocyanin production; PA14-lux; 200 µM, 18 h; baseline: DMSO vehicle).
With `CC[C@H](C)[C@H](NC(=O)[C@H](CCCNC(=N)N)NC(=O)[C@H](CO)NC(=O)[C@H](Cc1ccc(O)cc1)NC(=O)[C@@H](NC(=O)[C@@H](NC(=O)[C@H](C)NC(=O)CNC(=O)[C@H](CCCCN)NC(=O)[C@H](CCCCN)NC(=O)CCNC(=O)CCCCCNC(=O)[C@H](CCCNC(=N)N)NC(=O)CCCCCNC(=O)[C@H](CCCNC(=N)N)NC(=O)[C@H](CCCNC(=N)N)NC(=O)CCCCCNC(=O)[C@H](CCCNC(=N)N)NC(=O)[C@H](CCCNC(=N)N)NC(=O)CCCCCNC(=O)[C@H](CCCNC(=N)N)NC(=O)[C@H](CCCNC(=N)N)NC(=O)CCCCCNC(=O)[C@@H](N)CCCNC(=N)N)C(C)C)[C@@H](C)O)C(=O)N[C@@H](CO)C(=O)NCC(=O)N[C@@H](CCC(N)=O)C(=O)N[C@@H](Cc1ccc(O)cc1)C(=O)N[C@@H](CCCCN)C(=O)O` the MBIC50 was 48 µM (biofilm formation, crystal violet staining; ATCC 27853, Mueller-Hinton broth; 24 h, 37 °C, polypropylene plate).
`CN[C@H](CC(C)C)C(=O)N[C@H]1C(=O)N[C@@H](CC(N)=O)C(=O)N[C@H]2C(=O)N[C@H]3C(=O)N[C@H](C(=O)N[C@H](C(=O)NCc4cn(CCCCC(=O)N[C@H](C(=O)N[C@@H](CCN)C(=O)N[C@H]5CCNC(=O)[C@H]([C@@H](C)O)NC(=O)[C@H](CCN)NC(=O)[C@H](CCN)NC(=O)[C@H](CC(C)C)NC(=O)[C@@H](CC(C)C)NC(=O)[C@H](CCN)NC5=O)[C@@H](C)O)nn4)c4cc(O)cc(O)c4-c4cc3ccc4O)[C@H](O)c3ccc(c(Cl)c3)Oc3cc2cc(c3O[C@@H]2O[C@H](CO)[C@@H](O)[C@H](O)[C@H]2O[C@H]2C[C@](C)(N)[C@H](O)[C@H](C)O2)Oc2ccc(cc2Cl)[C@H]1O` gave an MIC of 6 µM (broth microdilution; ATCC 35218, cation-adjusted Mueller-Hinton broth).
For `NCc1ccc(S(=O)(=O)c2ccc3nc(N)sc3c2)cn1`, the inhibition was -8.81% (pyocyanin production; PA14-lux; 200 µM, 18 h; baseline: DMSO vehicle).
The MIC of `C#CCNC(=O)[C@H]1NC(=O)[C@H]2NC(=O)[C@H](NC(=O)[C@@H]3NC(=O)[C@H](CC(N)=O)NC(=O)[C@H](NC(=O)[C@@H](CC(C)C)NC)[C@H](O)c4ccc(c(Cl)c4)Oc4cc3cc(c4O[C@@H]3O[C@H](CO)[C@@H](O)[C@H](O)[C@H]3O[C@H]3C[C@](C)(N)[C@H](O)[C@H](C)O3)Oc3ccc(cc3Cl)[C@H]2O)c2ccc(O)c(c2)-c2c(O)cc(O)cc21` is reported as greater than 86 µM (broth microdilution; ATCC 13883, cation-adjusted Mueller-Hinton broth).
The meropenem MIC of `O=C(O)CN(CC(=O)O)CP(=O)(O)O` is reported as 1 µg/mL (VIM-2 and OXA-50 producer; 32 µg/mL, added: meropenem).
`Nc1nc2ccc(Oc3cc[nH]c(=O)c3)cc2s1` gave a swarming inhibition of 82.1% (swarming area; PA14-lux; 200 µM, 24 h; baseline: DMSO).
`C#CCOc1ccc(CN[C@@]2(C)C[C@H](O[C@H]3[C@H](Oc4c5cc6cc4Oc4ccc(cc4Cl)[C@@H](O)[C@@H](NC(=O)[C@@H](CC(C)C)NC)C(=O)N[C@@H](CC(N)=O)C(=O)N[C@H]6C(=O)N[C@H]4C(=O)N[C@H](C(=O)N[C@H](C(=O)N[C@@H](CCCNC(=N)N)C(N)=O)c6cc(O)cc(O)c6-c6cc4ccc6O)[C@H](O)c4ccc(c(Cl)c4)O5)O[C@H](CO)[C@@H](O)[C@@H]3O)O[C@@H](C)[C@H]2O)cc1OC` has an MIC of 4 µM (broth microdilution; ATCC 35218, cation-adjusted Mueller-Hinton broth).

For quick reference, copied from above:
With `CC(C)C[C@H](NC(=O)[C@H](CCN)NC(=O)[C@H](CCN)NC(=O)[C@@H](Cc1ccccc1)NC(=O)[C@H](CC(C)C)NC(=O)[C@H](CCN)NC(=O)[C@H](CCN)NC(=O)[C@@H](CCN)NC(=O)CCS)C(N)=O` the MBC was greater than 128 µM (PAO1; 24 h, 37 °C).
With `CC(C)[C@H]1NC(=O)[C@H](Cc2ccccc2)NC(=O)[C@@H](C(C)C)NC(=O)[C@@H](C)NC(=O)[C@H](C)NC(=O)[C@@H](Cc2c(-c3ccc(-c4ccc(-c5ccccc5)cc4)cc3)[nH]c3ccccc23)NC(=O)[C@@H](CO)NC1=O` the MIC90 was greater than 50 µM (broth dilution).
`CC(C)C[C@H](NC(=O)[C@H](CCN)NC(=O)[C@H](CCN)NC(=O)[C@@H](Cc1ccccc1)NC(=O)[C@H](CC(C)C)NC(=O)[C@H](CCN)NC(=O)[C@H](CCN)NC(=O)[C@@H](CCN)NC(=O)CCSCCOC(=O)c1ccccc1)C(N)=O` has an MBC of 128 µM (≈ 144 µg/mL) (PAO1; 24 h, 37 °C).
The MIC90 of `CC(C)[C@H]1NC(=O)[C@H](Cc2ccccc2)NC(=O)[C@@H](C(C)C)NC(=O)[C@@H](C)NC(=O)[C@H](CO)NC(=O)[C@@H](Cc2c(-c3ccc(-c4ccccc4)c(F)c3)[nH]c3ccccc23)NC(=O)[C@@H](CO)NC1=O` is reported as greater than 50 µM (broth dilution).
